Results gathered from unrelated publications.
Lines come from different studies, so protocols differ. Numbers after ± are the reported error.
MCA2: Metacaspase-2 (MCA2, Trypanosoma brucei brucei, UniProt Q585F3)
Chain of UniProt Q585F3 (whole entry, looked up): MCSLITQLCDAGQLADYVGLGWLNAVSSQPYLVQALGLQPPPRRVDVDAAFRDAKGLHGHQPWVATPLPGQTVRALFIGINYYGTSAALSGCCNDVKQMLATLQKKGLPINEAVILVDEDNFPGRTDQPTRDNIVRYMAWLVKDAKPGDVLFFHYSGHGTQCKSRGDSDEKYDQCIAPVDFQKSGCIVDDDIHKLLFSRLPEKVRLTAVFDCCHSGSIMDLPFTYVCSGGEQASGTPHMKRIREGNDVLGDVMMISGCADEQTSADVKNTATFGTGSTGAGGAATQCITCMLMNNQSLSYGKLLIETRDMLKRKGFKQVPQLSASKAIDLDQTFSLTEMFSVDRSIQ
Chain of UniProt C7C422 (whole entry, looked up): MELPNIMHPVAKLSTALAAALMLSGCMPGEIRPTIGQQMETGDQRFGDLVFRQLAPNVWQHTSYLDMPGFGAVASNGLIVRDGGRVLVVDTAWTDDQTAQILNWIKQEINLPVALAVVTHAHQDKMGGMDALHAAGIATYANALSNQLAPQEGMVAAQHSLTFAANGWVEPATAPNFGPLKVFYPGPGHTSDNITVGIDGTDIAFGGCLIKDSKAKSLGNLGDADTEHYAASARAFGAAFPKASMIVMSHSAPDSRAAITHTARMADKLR
Chain of UniProt P33535 (whole entry, looked up): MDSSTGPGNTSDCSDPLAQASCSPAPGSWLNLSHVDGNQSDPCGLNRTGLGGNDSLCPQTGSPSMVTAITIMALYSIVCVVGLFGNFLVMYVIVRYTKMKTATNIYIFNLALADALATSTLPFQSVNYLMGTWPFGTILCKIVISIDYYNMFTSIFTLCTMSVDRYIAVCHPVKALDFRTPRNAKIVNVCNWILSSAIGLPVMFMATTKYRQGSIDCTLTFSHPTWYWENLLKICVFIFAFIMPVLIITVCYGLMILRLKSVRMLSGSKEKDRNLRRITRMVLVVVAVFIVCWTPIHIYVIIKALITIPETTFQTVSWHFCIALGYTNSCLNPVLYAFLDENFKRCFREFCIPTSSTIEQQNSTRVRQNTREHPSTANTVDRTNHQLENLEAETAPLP
Chain of UniProt Q02248 (whole entry, looked up): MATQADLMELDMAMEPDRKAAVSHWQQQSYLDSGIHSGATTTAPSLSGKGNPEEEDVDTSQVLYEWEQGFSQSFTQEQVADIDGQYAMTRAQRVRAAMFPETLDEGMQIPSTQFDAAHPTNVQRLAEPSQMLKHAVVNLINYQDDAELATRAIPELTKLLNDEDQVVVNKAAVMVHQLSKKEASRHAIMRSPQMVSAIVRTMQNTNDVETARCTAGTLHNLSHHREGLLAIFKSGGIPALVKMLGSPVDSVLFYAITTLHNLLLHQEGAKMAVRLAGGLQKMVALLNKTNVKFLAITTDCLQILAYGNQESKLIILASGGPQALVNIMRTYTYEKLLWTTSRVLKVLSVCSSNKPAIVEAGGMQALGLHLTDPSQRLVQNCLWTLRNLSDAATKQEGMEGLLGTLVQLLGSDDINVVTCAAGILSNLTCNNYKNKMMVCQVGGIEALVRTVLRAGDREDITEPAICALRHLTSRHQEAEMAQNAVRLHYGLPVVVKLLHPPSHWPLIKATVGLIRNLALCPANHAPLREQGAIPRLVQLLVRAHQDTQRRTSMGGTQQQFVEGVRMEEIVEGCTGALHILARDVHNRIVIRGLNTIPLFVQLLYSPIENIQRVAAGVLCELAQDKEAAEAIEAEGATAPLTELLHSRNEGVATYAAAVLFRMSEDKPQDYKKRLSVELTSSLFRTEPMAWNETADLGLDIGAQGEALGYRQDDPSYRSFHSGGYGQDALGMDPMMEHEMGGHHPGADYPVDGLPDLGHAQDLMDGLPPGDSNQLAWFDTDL
Chain of UniProt P41143 (whole entry, unmodified, looked up): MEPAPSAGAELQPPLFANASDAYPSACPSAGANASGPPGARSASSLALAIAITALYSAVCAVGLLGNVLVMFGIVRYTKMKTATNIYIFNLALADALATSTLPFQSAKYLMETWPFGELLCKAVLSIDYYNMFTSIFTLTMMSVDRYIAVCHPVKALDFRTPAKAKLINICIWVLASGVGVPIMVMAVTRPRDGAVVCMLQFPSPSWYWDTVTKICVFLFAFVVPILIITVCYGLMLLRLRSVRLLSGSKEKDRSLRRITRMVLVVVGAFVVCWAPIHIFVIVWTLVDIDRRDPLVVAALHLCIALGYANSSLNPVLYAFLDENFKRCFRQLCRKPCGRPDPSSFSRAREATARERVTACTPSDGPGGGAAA

| SMILES | target | assay | system | setting | Ki [nM] |
| --- | --- | --- | --- | --- | --- |
| C[C@H](NC(=O)[C@H](CCCCN)NC(=O)c1ccccc1N)C(=O)N[C@@H](CCC(=O)O)C(=O)N[C@@H](CO)C(=O)N[C@@H](CO)C(=O)N[C@@H](C)C(=O)N[C@@H](CCC(N)=O)C(=O)NCCNc1ccc([N+](=O)[O-])cc1[N+](=O)[O-] | MCA2 | enzyme activity, competitive inhibitor | Trypanosoma brucei | added: Z-FR-AMC substrate | 3500 |
| CC[C@H](C)[C@H](NC(=O)[C@@H]1CCCN1C(=O)[C@H](CCC(=O)O)NC(=O)[C@H](CCSC)NC(=O)CNC(=O)[C@H](CC(N)=O)NC(=O)CNC(=O)CNC(=O)[C@H](CCC(=O)O)NC(=O)CNC(=O)[C@H](CCCNC(=N)N)NC(=O)[C@H](CCC(N)=O)NC(=O)[C@H](Cc1ccc(O)cc1)NC(=O)[C@H](CC(C)C)NC(=O)[C@H](CCCCN)NC(=O)[C@@H]1CCCN1C(=O)[C@H](CCC(N)=O)NC(=O)[C@H](C)NC(=O)[C@@H](NC(=O)[C@H](CCC(=O)O)NC(=O)[C@H](C)NC(=O)[C@H](CCC(=O)O)NC(=O)[C@@H](NC(=O)[C@@H]1CCCN1C(=O)[C@@H](N)CCCCN)C(C)C)C(C)C)C(=O)N1CCC[C@H]1C(=O)N[C@@H](CCC(=O)O)C(=O)N[C@@H](CC(=O)O)C(=O)N[C@H](C(=O)N[C@@H](CC(C)C)C(=O)N[C@@H](CC(N)=O)C(=O)N[C@@H](CCC(=O)O)C(=O)N[C@@H](C)C(=O)N[C@@H](CC(C)C)C(=O)N[C@@H](CC(N)=O)C(=O)N[C@@H](C)C(=O)O)C(C)C | Prothrombin (F2, Homo sapiens, UniProt P00734) | enzyme activity, inhibitor, absorbance |  | pH 8 | 0.0282 |
| Cc1cc(O)cc(C)c1C[C@H](N)C(=O)N[C@H](CCCNC(=N)N)C(=O)N[C@@H](Cc1ccccc1)C(=O)N(C)CC(=O)N(C)Cc1cc(C(F)(F)F)cc(C(F)(F)F)c1 | OPRD1 (Homo sapiens, UniProt P41143, D210A) |  |  |  | 27.1 |
| CC[C@H](C)[C@H](NC(=O)[C@H](CO)NC(=O)[C@H](CO)NC(=O)[C@H](CCCNC(=N)N)NC(=O)[C@H](C)NC(=O)[C@H](CCCCN)NC(=O)c1ccccc1N)C(=O)N[C@@H](CCC(N)=O)C(=O)NCCNc1ccc([N+](=O)[O-])cc1[N+](=O)[O-] | MCA2 | substrate |  | pH 7.4, 25 °C, added: 1 mM CaCl2 | 500 |
| CC(C)C[C@H](NC(=O)[C@H](CCCCN)NC(=O)[C@H](CCCCN)NC(=O)Cc1cccc(CNC(=O)[C@@H](C)NC(=N)N)c1)C(=O)O | Genome polyprotein, NS2B-NS3 protease (ZIKV, UniProt A0A024B7W1) | NS2B-NS3 protease activity, inhibitor |  |  | > 1000 |
| NC(=O)[C@@H]1CCCCC[C@@H](NC(=O)[C@@H](N)Cc2ccc(O)cc2)C(=O)N[C@@H](Cc2ccccc2)C(=O)N[C@@H](Cc2ccccc2)C(=O)N1 | Oprm1 (Rattus norvegicus, UniProt P33535) | ligand displacement, radioligand |  | cell membranes | 1.04 |
| CSCC[C@@H]1NC(=O)[C@@H](CCCNC(=N)N)NC(=O)[C@H](CC(=O)O)NC(=O)[C@H]2CCCN2C(=O)[C@@H]([C@H](C)O)NC(=O)[C@H](C(C)C)NC(=O)[C@@H]2CCCN2C(=O)[C@@H](CS)NC1=O | blaNDM-1 (Klebsiella pneumoniae, UniProt C7C422) | enzyme activity, inhibitor |  | added: nitrocefin 1.5 µM | 22600 |
| CC(C)c1cc2c(c(O)c1O)C1(C=O)CCCC(C)(C)C1CC2 (centres unmarked) | Catenin beta-1, armadillo repeat domain (Mus musculus, UniProt Q02248) | binding, ELISA counter-screen |  |  | 90000 ± 22000 |

Repeated from above:
| SMILES | target | assay | system | setting | Ki [nM] |
| --- | --- | --- | --- | --- | --- |
| CC(C)C[C@H](NC(=O)[C@H](CCCCN)NC(=O)[C@H](CCCCN)NC(=O)Cc1cccc(CNC(=O)[C@@H](C)NC(=N)N)c1)C(=O)O | Genome polyprotein, NS2B-NS3 protease (ZIKV, UniProt A0A024B7W1) | NS2B-NS3 protease activity, inhibitor |  |  | > 1000 |
